Experimental data gathered from unrelated publications.
± marks the error that the study gave.
LGALS3: Galectin-3 (LGALS3, Homo sapiens, UniProt P17931)
Tspo: Translocator protein (Tspo, Rattus norvegicus, UniProt P16257)
GLP1R: Glucagon-like peptide 1 receptor (GLP1R, Homo sapiens, UniProt P43220)

Structure (SMILES) | target | assay | system | setting | how to read | measurement | result
C#Cc1ccc2c(=O)[nH]nc(Cc3ccc(F)c(C(=O)N4CCN(C(=O)C=C)CC4)c3)c2c1 | Protein mono-ADP-ribosyltransferase PARP16 (PARP16, Homo sapiens, UniProt Q8N5Y8) | covalent labeling, click chemistry in-gel fluorescence | HAP1 | 2 h |  | saturating concentration | 300 nM
COc1cccc(C(=O)N[C@H]2[C@@H](O)[C@@H](CO)O[C@@H](S[C@@H]3O[C@H](CO)[C@H](O)[C@H](NC(=O)c4cccc(OC)c4)[C@H]3OS(=O)(=O)O)[C@@H]2O)c1 | LGALS3 | ITC |  | concentration not given, Kd fixed from FP |  | binding stoichiometry | 1.01
CCOCCNC(=O)N1CCC[C@H](c2n[nH]c(-c3ccccc3)n2)C1 | Aromatase (CYP19A1, Homo sapiens, UniProt P11511) | enzyme activity, inhibitor, MFC to HFC conversion |  | 5 µM, added: MFC substrate |  | apparent Km | 38 µM
O=C(Nc1ccc(C(F)(F)F)cc1)c1cc(Cl)ccc1O | Androgen receptor, AR-V7 isoform (AR, Homo sapiens, UniProt P10275) | Western blot | CWR22Rv1 | 1 µM, 16 h |  | AR variant protein level | inhibited
CC(=O)N[C@H](Cc1ccc2ccccc2c1)C(=O)N[C@H](Cc1ccc(Cl)cc1)C(=O)N[C@H](Cc1cccnc1)C(=O)N[C@@H](CO)C(=O)N[C@@H](Cc1ccc[n+](C)c1)C(=O)N[C@H](CCCCNC(C)C)C(=O)N[C@@H](CC(C)C)C(=O)N[C@@H](CCCCNC(C)C)C(=O)N1CCC[C@H]1C(=O)N[C@H](C)C(N)=O | Gonadotropin-releasing hormone receptor III (Gallus gallus, UniProt Q5EFE0) | inositol phosphate production, agonist | COS-7 transfected | 1 h |  | EC50 | 4.86 µM
CC(C)(C)CCN1C[C@@H]2[C@@H](CNC(=O)c3cc(Cl)cc(Cl)c3)[C@@H]2C1.Cl | Voltage-dependent L-type calcium channel subunit alpha-1F (Homo sapiens, UniProt O60840, M1004A) | calcium current, whole-cell patch clamp | HEK-293T cells | 100 µM |  | half-activation voltage | -1.58 ± 9.29 mV
CC(C)(Sc1nc2ncccc2n1Cc1ccc(Br)c2ccccc12)C(=O)O | Solute carrier family 22 member 12 (SLC22A12, Homo sapiens, UniProt Q96S37) |  | HEK293T transfected | competitive model fit, added: [14C]urate |  | Vmax urate uptake | 2260 pmol/min/mg
Cn1c(=O)c2[nH]c(CCc3ccccc3)nc2n(C)c1=O | Androgen receptor (AR, Homo sapiens, UniProt P10275) | reporter gene, antagonist, PSA-luciferase | HeLa-A6 | 10 µM, 24 h, added: 5 nM dihydrotestosterone | baseline: maximal activity | remaining activity | 101%
O=C(O)[C@H]1O[C@@H](O[C@H]2C=Cc3c(cc4ccc5cccc6c7ccccc7c3c4c56)[C@@H]2O)[C@H](O)[C@@H](O)[C@@H]1O | UDP-glucuronosyltransferase 1A10 (UGT1A10, Homo sapiens, UniProt Q9HAW8) | glucuronidation, substrate | UGT-expressing HEK293 homogenate | normalized to UGT expression |  | kcat | 0.00267 ± 0.000167 s⁻¹
CC(=O)OC1OC(OC(C)=O)C2CC(O)(C3(C)CCCC(C)(C)C3)CCC12 (stereo not shown) | Peptidyl-prolyl cis-trans isomerase A (PPIA, Homo sapiens, UniProt P62937) | surface plasmon resonance |  | concentration not given |  | binding | inactive
COc1ccc(/C=C/C(=O)NC[C@H]2O[C@H](OC)[C@@H](O)[C@@H](O)[C@@H]2O)cc1OC | Fucose-binding lectin PA-IIL (lecB, Pseudomonas aeruginosa, UniProt Q9HYN5) | binding, ITC |  | 25 °C |  | ΔH | -5.63 ± 0.21 kcal/mol
COC1CCC(N(C(=O)C2CCC(C)CC2)c2cc(C3=CCCCC3)sc2C(=O)O)CC1 (stereo not shown) | Probable UDP-N-acetylglucosamine--peptide N-acetylglucosaminyltransferase SEC, 5-TPR truncated construct (SEC, Arabidopsis thaliana, UniProt Q9M8Y0) |  |  | 100 µM, added: UDP-GlcNAc 200 µM |  | O-GlcNAcylation | no effect
CN[C@@H](C)C(=O)N[C@H]1CN(C(=O)Cc2ccccc2)CC[C@H]2CC[C@@H](C(=O)NCc3ccccc3)N2C1=O | E3 ubiquitin-protein ligase XIAP, BIR3 domain with caspase-9 (XIAP, Homo sapiens, UniProt P98170) | antagonist |  | 5 µM, BIR3 domain |  | caspase-9 activity restored | 50%
CC(C)C[C@H](NC(=O)[C@H](Cc1ccc(O)cc1)NC(=O)[C@@H](CCCNC(=N)N)NC(=O)[C@@H](CO)NC(=O)[C@H](Cc1ccccc1)NC(=O)[C@H](CC1CCCCC1)NC(=O)[C@@H](N)CC(=O)O)C(=O)N[C@@H](Cc1c[nH]c2ccccc12)C(=O)N[C@@H](CO)C(=O)O | Urokinase plasminogen activator surface receptor (Homo sapiens, UniProt Q03405) | binding, SPR |  |  |  | koff | 0.0076 s⁻¹
Cc1ncsc1-c1ccc(CNC(=O)[C@@H]2C[C@@H](O)CN2C(=O)[C@@H](NC(=O)OC(C)(C)C)C(C)(C)C)cc1 | von Hippel-Lindau disease tumor suppressor, with elongin B/C (VHL, Homo sapiens, UniProt P40337) | TR-FRET vs FP |  |  | baseline: TR-FRET Ki over FP Kd | sensitivity ratio | 3.09 fold
CNc1ccccc1C(=O)O[C@H]1C[C@H](n2cnc3c(N)ncnc32)O[C@@H]1COP(=O)(O)OP(=O)(O)O | Unconventional myosin-Va (Gallus gallus, UniProt Q02440, D297C/G292C/I296C/S293C/V295G) | stopped-flow FRET |  | 10 °C, added: MgCl2 2 mM |  | pocket reverse rate constant | 0.85 ± 0.12 s⁻¹
CC(C)=CCC/C(C)=C/CC/C(C)=C/Cc1c(O)cc(CO)c(C=O)c1O | StaI from Stachybotrys chartarum | substrate |  | 30 min, pH 7.0, 45 °C |  | Km | 817 µM
CC(Oc1cc(-c2ccccc2)nc2cccnc12)C(=O)N(C)c1ccccc1 (stereo not shown) | Tspo | binding | rat brain homogenate | pKi minus clogD |  | lipophilic efficiency | 4.6 ± 0.1
N#Cc1cccc(/C=C/C(=O)c2ccc(O)cc2)c1 | Thioredoxin domain-containing protein 5 (TXNDC5, Homo sapiens, UniProt Q8NBS9) | enzyme activity, PDI reductase |  | 40 µM, protein 1 µM |  | activity class | inactive

Structure (SMILES) | target | assay | system | setting | how to read | measurement | result
CCC(=O)N(C)c1ccc(Cl)c(Cl)c1 | Aryl hydrocarbon receptor (AHR, Homo sapiens, UniProt P35869) | reporter gene, agonist |  | 3.2 µM | baseline: vehicle | fold activation | 1.86 fold
O=C(O)[C@@H]1O[C@@H](O[C@H]2[C@H](O)[C@H](O)[C@H](O[C@H]3[C@H](O)[C@H](O)[C@H](O[C@H]4[C@H](O)[C@H](O)[C@H](O)O[C@H]4C(=O)O)O[C@H]3C(=O)O)O[C@H]2C(=O)O)[C@@H](O)[C@@H](O)[C@@H]1O | Beta-lactoglobulin (LGB, Bos taurus, UniProt P02754, A134V/G80D) | isothermal titration calorimetry |  | concentration not given, pH 4.00, 37 °C, 50 mM KH2PO4 | ligand per protein | binding stoichiometry | 4
CN(C1COC1)C(C)(C)/C=C(\C#N)C(=O)N1CCC[C@H]1Cn1nc(-c2ccc(Oc3ccccc3)cc2F)c2c(N)ncnc21 | Tyrosine-protein kinase (Rattus norvegicus, UniProt Q5S255) |  | rat, PBMC | oral, 40 mg/kg, 6 (unit not given) |  | receptor occupancy | 82 ± 5%
CC(/C=C/C(=O)NO)=C\[C@@H](C)C(=O)c1ccc(N(C)C)cc1 | Histone deacetylase 8 (HDAC8, Homo sapiens, UniProt Q9BY41) | ITC | Tris-HCl buffer | pH 7.5, 25 °C |  | TΔS | -0.3 ± 0.1 kcal/mol
COc1c(F)c(F)c(C(=O)N[C@H]2[C@@H](O)[C@@H](CO)O[C@@H](S[C@@H]3O[C@H](CO)[C@H](O)[C@H](NC(=O)c4c(F)c(F)c(OC)c(F)c4F)[C@H]3O)[C@@H]2O)c(F)c1F | LGALS3 | ITC |  | Kd fixed from FP |  | ΔH | -12.4 ± 0.239 kcal/mol
Cn1ccc2c(N3CCN(CCCCOc4ccc5c(c4)NC(=O)CC5)CC3)cccc21 | D(2) dopamine receptor (DRD2, Homo sapiens, UniProt P14416, I184A) | β-arrestin2 recruitment, Tango | human cells |  |  | effect of I184A mutation | inhibited
COC(=O)CC1N=C(c2ccc(Cl)cc2)c2c(sc(C(=O)NCCCCCNc3cccc4c3C(=O)N(C3CCC(=O)NC3=O)C4=O)c2C)-n2c(C)nnc21 (stereo not shown) | Bromodomain-containing protein 3 (BRD3, Homo sapiens, UniProt Q15059) | degrader, western blot | HEK-293T | 5 h |  | degradation | inactive
C=CCC1NC(=O)C=CC(=O)NC(C(N)=O)CCNC(=O)C(CCCNC(=O)c2cnccn2)NC(=O)C(Cc2ccco2)NC1=O (stereo not shown) | Receptor tyrosine-protein kinase erbB-4 (ERBB4, Homo sapiens, UniProt Q15303) | DNA-templated library selection |  | one selection round |  | enrichment factor | 0.91
CC(/C=C/C(O)=C1/C(=O)CNC1=O)=C\[C@@H](C)[C@H]1O[C@@]2(C)O[C@H](C[C@@H]3O[C@@]32C)[C@@H]1C | Cytochrome P450 TamI (Streptomyces sp. 307-9, UniProt D3Y1J3) | substrate |  |  |  | kcat | 8.33e-05 ± 1.67e-05 s⁻¹
NCCCC[C@H](NC(=O)[C@H](C/C=C/C[C@H](NC(=O)[C@@H]1CCCN1)C(=O)N[C@@H](CCCCN)C(=O)NCCCN)NC(=O)[C@@H]1CCCN1)C(=O)NCCCN | (CUG)10 RNA | SPR |  |  |  | residence time | 15 s
N#Cc1cnc(Nc2nc3ccccc3o2)nc1-c1ccsc1 | Metabotropic glutamate receptor 5 (Grm5, Rattus norvegicus, UniProt P31424) | calcium mobilization, negative allosteric modulator |  | added: glutamate EC80 | baseline: maximal glutamate response | maximal response | 13 ± 5%
COc1ccc(-c2cc(C(F)(F)F)nc(NCc3ccc(Cl)cc3)n2)cc1OC | GLP1R | efficacy cooperativity, allosteric modulator | HEK-293T overexpressing GLP1R | added: GLP-1 |  | cooperativity factor beta | 2
Cc1cc(CC(=O)N2C[C@H](O)C[C@H]2C(=O)NCc2ccccc2)on1 | von Hippel-Lindau disease tumor suppressor, with Elongin B/C (VHL, Homo sapiens, UniProt P40337) | isothermal titration calorimetry |  | concentration not given, 25 °C |  | binding enthalpy (ΔH) | -12.2 ± 0.2 kcal/mol
C=CC[C@H]1OC(=O)CCNC(=O)[C@H](C)N(C)C(=O)[C@H]([C@@H](C)CC)N(C)C(=O)[C@H]([C@@H](C)CC)NC(=O)[C@@H]2[C@@H](C)CCN2C1=O | Platelet-derived growth factor receptor beta, extracellular domain (PDGFRB, Homo sapiens, UniProt P09619) | binding, surface plasmon resonance | PDGFR-β extracellular domain | 25 °C |  | ΔCp | ~1.04 kcal/(K·mol)
CCc1cc(C)nc2c(CC(=O)N(CC)CC)c(-c3ccc(OCC[18F])cc3)nn12 | Tspo | two-tissue compartment model | rat C6 glioma model, brain | 60 min dynamic PET |  | K1 influx rate constant | 2.16 ± 0.462 mL/cm3/min
COc1ccc(CCNc2nc(-c3ccccc3)cc(C(F)(F)F)n2)cc1OC | GLP1R | cAMP accumulation, positive allosteric modulator | HEK-293T overexpressing GLP1R | added: EC20 GLP-1 |  | Emax | 37 ± 15%
[3H]C([3H])([3H])c1cnccc1CN1C[C@@H](c2cc(F)c(F)c(F)c2)CC1=O | Synaptic vesicle glycoprotein 2A (SV2A, Homo sapiens, UniProt Q7L0J3) | radioligand binding, saturation binding | human control, pooled frontal cortex homogenate |  |  | Bmax | 0.16 pmol/mg
Cc1ccc(C)c2sc(NC(=O)C3CCN(S(=O)(=O)c4ccc(F)cc4)CC3)nc12 | N-acyl-phosphatidylethanolamine-hydrolyzing phospholipase D (Napepld, Mus musculus, UniProt Q8BH82) | activator, LC-MS/MS |  | 10 or 20 µM, 90 min, added: NOPE substrate |  | OEA/NOPE ratio | increased
